Measurements from different studies.
Each numbered part is a random draw from the data of one study; scales do not carry over between parts.

Block 1 — technique: protein binding microarray; form: double-stranded DNA, one strand shown; matrix: in vitro; concentration: not given; baseline: not given; reading: higher = stronger binding; measurement: E-score
Target: Histone acetyltransferase KAT6A, winged helix 1, GST fusion (KAT6A, Homo sapiens, UniProt Q92794, residues 1-85)
Setting: 8-mer, flanks averaged, mean of 2 arrays, mostly near background
Residues (chain): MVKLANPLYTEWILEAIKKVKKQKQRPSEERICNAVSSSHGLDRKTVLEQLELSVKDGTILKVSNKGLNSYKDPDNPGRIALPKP
CAAGCCAA: -0.0639
ACCCTTTG: -0.0453
CCTGTAAA: -0.19
AGTTAAGC: -0.0698
ACTTTCAA: -0.0855
GAGTAACC: 0.0239
GTAAAGAC: -0.0989
ACACAAGC: -0.19
AACCACTA: -0.239
CAGATATC: -0.135
ACAACATC: 0.0397
CATACAAA: -0.0622
AATGTAGT: -0.158
GTCGACTA: -0.102
TATAAATA: -0.0241
ACGTGGTA: -0.246
CAAGTATG: -0.114
ATTGTTCC: 0.0612
ATCGCGGG: 0.325
GAGGACAA: -0.121
CGTCAACC: 0.065
AAACACAT: -0.222
GAGGTTCA: -0.0775

Block 2 — technique: universal PBM; form: double-stranded DNA, one strand shown; matrix: in vitro; concentration: not given; reading: higher = stronger binding; measurement: E-score
Target: Sal-like protein 4, full length isoform B (SALL4, Homo sapiens, UniProt Q9UJQ4-2, residues 1-616)
Setting: 8-mer, flanks averaged, mean of replicates
ATAGTAGA: 0.2
ACTAACAG: 0.102
GCTCTCGA: -0.166
CCAAGATA: 0.136
CCTGCTTC: -0.184
AGCCAGCT: -0.201
CGATAGAA: 0.0605
TGCGCGAA: -0.0201
TGAGAAAA: 0.159
GGATCGTA: -0.0307
GTCCAGCA: -0.0987
AAGAATGC: 0.113
TAGCCTCA: -0.00035
ATCCGCCA: -0.0533
AATCTCCT: 0.0425
GCCTCGCC: -0.365
CCGTGCCG: -0.233
ATACCTAC: 0.2
AGCCTCGC: -0.192
TCGCTCAA: -0.14
CAGCCAGC: -0.282
CTCAGGAC: -0.156
ACTCAGCG: -0.113
GAGATAAA: 0.157

Block 3 — technique: RNA Bind-n-Seq; form: RNA; matrix: in vitro; concentration: not given; baseline: input RNA pool; reading: higher = stronger binding; measurement: bound/input enrichment
Target: RING finger protein unkempt homolog, zinc fingers 1-6, GST-SBP tag (UNK, Homo sapiens, UniProt Q9C0B0, residues 30-357)
Setting: RNA with constant flanks, human and mouse sites, ends assumed
All sequences stand within: GGGAGUUCUACAGUCCGACGAUC … CAACAGAGGAUUGAGCAUCA
Residues (chain): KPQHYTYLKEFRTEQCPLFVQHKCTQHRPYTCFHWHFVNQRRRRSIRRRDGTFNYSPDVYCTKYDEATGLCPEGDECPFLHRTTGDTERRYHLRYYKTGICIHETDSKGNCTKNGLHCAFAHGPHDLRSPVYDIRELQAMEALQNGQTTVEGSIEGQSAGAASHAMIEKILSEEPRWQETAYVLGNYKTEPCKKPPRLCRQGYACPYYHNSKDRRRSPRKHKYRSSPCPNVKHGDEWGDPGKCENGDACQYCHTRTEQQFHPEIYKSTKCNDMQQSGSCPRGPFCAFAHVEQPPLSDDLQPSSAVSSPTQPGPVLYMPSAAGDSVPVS
AUCCUGCCUGUGUCUGUAGAUGAGUAUCAAGUGGGGCAGCUGUAUUCUGUGGCUGAAGCCAGUAAAAAUGAAACUGGUGGUGGGGAAGGUGUGGAGGUCCUGGUGAAUGAGCCCUACGAG: 0.246 ratio
CAUAGUGAACGAGAAAUGAGGAACACACUAGAAAAAUUUACUGCAAGCAUCCAGCGUUUAAUAGAGCAAGAAGAAUAUUUGAAUGUCCAAGUUAAGGAACUUGAAGCUAAUGUACUUGCU: 2.45 ratio
GAAGAUGGGCCUCCAGAGCUCCUGUUUAUUCAUGGAGGGCACACUGCCAAGAUUUCUGACUUCAGCUGGAAUCCCAAUGAACCUUGGGUCAUUUGCUCUGUGUCUGAAGAUAACAUCAUG: 0.172 ratio
CCUCAGCUUUCUCCAACUGCCCUUUGUCCUCCAGUUUCUUUCUGCUGCCUCUGUCUUGUAUUUGUUUUGUUCUGUUUUCUCAUUGGGGGUAAAUGGUGCCUGGCACAUGGCAGGCACUCA: 0.523 ratio
AAAAAAAAGCAAAUCAGAAAACCCACGGUUUUUCUUUUUUUCUUUUUUUCUUUUUUUCUUUUUUUGCUUUAAAACAAAGGGAAAAAAGAGUUUAAACAAAAAACCCACAAUUGAACUUCC: 0.245 ratio
GGAGGAAUGAAUUUAUCUAGCAAGCUGGCCCAACUCACUUGCCAUGGCAAUCUCUGCCACAGCUUCCAGUCCUUCAAUACUUCAUAUACAGACACAGGAUUAUGGGGACUCUAUAUGGUC: 0.304 ratio
GCAUGGCUGACCAACUGACUGAAGAGCAGAUUGCAGAGUUCAAAGAAGCUUUCUCACUAUUUGACAAGGACGGGGAUGGGACAAUAACAACAAAGGAGCUGGGGACAGUGAUGAGGUCCC: 0.425 ratio
UGGUAUCUCUUCUUAGUGUUCUAUUUAUCUUAUUUGCUAAUGAGAACAAUUCUUCUUCUGUUAGGCUGUGCUUUAUUGAUAAAACCAAGUAUUGAAUAAAGAGAGUUAAUUAUCUUUUUA: 1.52 ratio
GCCAGUGCAAAGUAGCCAGAAGGCUGCCACGCCAGAGCGGCACAGAGUUCCCAAGUGUUCUUAGUUUUCGUGUCCGAGCGUCUUGGGCCGCUCUCUCCGGAGAACUGCGACCAGGAUGUG: 0.0953 ratio
UCUGCAAUAGUUGGGUUUAUCUACGGGUACGUGGCUGAACAGUUUGGGUGGACUGUCUACAUAGUUAUGGCCGGAUUUGCUUUCUCCUGUUUGCUGACACUUCCUCCAUGGCCUAUCUAC: 0.231 ratio
CCUUCAAGGAAAGAAUUACCAGAAUACUAUGAAUUAAUUAGGAAGCCAGUGGAUUUCAAAAAAAUAAAGGAAAGGAUUCGUAAUCAUAAGUACCGGAGCCUAGGCGACCUGGAGAAGGAU: 0.975 ratio

Block 4 — technique: protein-binding microarray; form: double-stranded DNA, one strand shown; matrix: in vitro; concentration: 940 nM top; setting: 60-bp whole probe; with: salmon DNA 0.4 mg/ml; baseline: random background probes; reading: higher = stronger binding; measurement: fitted relative affinity; all sequences stand within: GCCTAGCAC … GTCTTGATTCGCTTGACGCTGCTG
Target: Interferon regulatory factor 5, full length, phosphomimetic (IRF5, Homo sapiens, UniProt Q13568-2, residues 1-514, S451D/S453D/S456D/S462D)
GACGACCTGGGGTATCGAGACGTGCTA: 0.807 z-score
TCAGGAAATGGGAAACCCACTGTGCTA: -0.0426 z-score
TTAGAACTGGGGCTTCGATTAGTGCTA: -0.0746 z-score
TATGTTTTTCATTTTGTTCAGTGCTAG: 1.21 z-score
GACGGTATCGGTTTCGGTACGTGCTAG: 11.6 z-score
TTAGATTTCAGCCTGGATTAGTGCTAG: -0.12 z-score
TTCTTAATGCTTCTGGGCCAGTGCTAG: -0.212 z-score
TTAGATATCAGTTTCGAATAGTGCTAG: 3.66 z-score
GGGTCTCTTGTTCTCTCTGGGTGCTAG: 1.43 z-score
TTAGATCTCAGACTAGATTAGTGCTAG: -0.35 z-score
TTTATTTTCTGAATGCCCTCGTGCTAG: 1.17 z-score
TTAGGACTGCTTATCCTTCAGTGCTAG: -0.411 z-score
GACGGTTTCGGGTTTCGGCACGTGCTA: 8.49 z-score
TTAGGTATCCTTTCCCTTTAGTGCTAG: 0.576 z-score
TTAGGTTTCTTTTTCCTTTAGTGCTAG: 3.66 z-score
CATGAACTGTTTCTTGAAAAGTGCTAG: -0.15 z-score
GACGGTTTCGGTGCCGGGACGTGCTAG: 11.3 z-score
CTGCTCTGTGCACAGAAGACGTGCTAG: -0.185 z-score
AAGATTCTAGCCTATAGAAGCGTGCTA: -0.388 z-score
TCACCACCCACTCTGGCACTGTGCTAG: -0.0721 z-score
TTAGGTCTCCTGTTCCTTTAGTGCTAG: 0.149 z-score
AGTATGTTCCCTATTTAAGGGTGCTAG: 0.284 z-score
GACGGACTGGACACTGGGGAGGTGCTA: -0.205 z-score
TACGGACTGCTTATCCTGACGTGCTAG: -0.126 z-score
ATGAGCTTCAAACCATAACCGTGCTAG: -0.0147 z-score

Block 5 — technique: RNA Bind-n-Seq; form: RNA; matrix: in vitro; concentration: 365 nM; baseline: no-protein control; reading: higher = stronger binding; measurement: RBNS enrichment (R)
Target: RNA binding protein fox-1 homolog 2, RRM domain, GST-SBP tag (RBFOX2, Homo sapiens, UniProt O43251-10, residues 100-194)
Setting: natural RNA segment, single round, ends assumed
All sequences stand within: GGGAGUUCUACAGUCCGACGAUC … UGGAAUUCUCGGGUGCCAA
Target sequence (chain): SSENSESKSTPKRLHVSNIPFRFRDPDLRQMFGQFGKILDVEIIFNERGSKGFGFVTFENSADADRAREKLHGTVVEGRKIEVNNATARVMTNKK
UUCUGUGACCUUUGAAGCCAGUCUCAGUGGUUUAGGCAGCUUUGCAGUUCUAACUCUAGCUAGAGGCCAGGCUGUGUGCAGAGCUAAAGCACAAAUGAGCAGUACAUCAG: 0.314
AGCUUCAGGGACUCUUAGUCUGUCCUUCCCCACUUUUGGUCCCAACAUCCCUGGGAUGGUGUGCUGUCUGGGCACCACGGUCUCCAUCCUCACUCCUGAGAGAUUUCUGC: 0.602
AUAAAGAGUCAAUCUCUUAAUUAUAUUUUUCAUCAUGUAAACAAGUUUCCCAUUUCCCUUUCUUAGAUUGCACCAGUGAAGGAGAUGUUUUGCAAAGAUUCAGAGAACUA: 0.638
AGGGGAUCCCUUCCCCCAAGCCCGUCAGUAGCGUCAGCUUGGGGCCUCUCGGGACUCCUGUUGUAGGUGGUCCCAGUCACAAGAAACCCUCUCCAGGCAAGAGGCCAUUC: 0.264
UCUCAUGAAUAUUCUUUAAGUGCUAUUUAAACCUCCCCAGCACUUAGAUGCAUAUAAUGGACUUACCUGAGGAAAGACAGCACAUAGGCAUGGGGAGAGGUAACCAAGGU: 0.724
UCCAUCAGAUGCUUGGGCCUCCUCCAUCAGAUGCCUGGGCCUCCUCCAUCAGAUGUCUGGGCCUCCUCCAUCAGAUGCCUGGGCCUCCUCCAUCAGAUGCCUGGGCCUCC: 0.345
UUGGGAAACAUGGGCAUAAUCAGGUAGUUUUGCUAAAAUUCCUCUUCCUUGGUCUACAUAAAGAAGACAUGGGUCUGUCAUAGAAUGGGGACAUUAGACUGAAAACUGGG: 2.47
CAUGUACUUCACGUUUUCUAUAUUUGUAACUUUGCAUGUAUUUUGUUUUGUCAUAUAAAAAGUUUAUAAAUGUUUGCUAUCAGACUGACAUUAAAUAGAAGCUAUGAUGA: 28.4
ACCUCUCUCCACGGAAAGGUCACAGUGGACAGCCCGGGCAGUAGGAUGCAGCCCCAGAGGCUGGUGGCAGUUUCCUGUCCAUUGGUAGGUGACGGCCCCUGGCUCAGGCA: 0.932
GCUUUGGCAUGAAAAGUGGUCCUCUUGACUGCAUUAUGCAUGCGAGGAUGAAAUAAACCUAGAAGUGGCAGAACACUGGAUUUGUGUGUGUGGCGCUUUAGGGUGCUGGA: 17
UCCCCACCCCUCCUCUUCCUUUGUCCUGUUGUUAAGGUUUUUUCAAGCAGUGUGUUCAGUAUGCAAAUCAAUUAUUUUAAGAAUCGCUUUUGUAAAUAUCUUUGUGAAUA: 1.26
CUGGCACUCGGUCUUCACAGAGCACAGUGGGUGGAUACUGCUAACACUUACUGGGCCCCGGUCGAAAUUGUGAAAAAUACCCUAAUGAUUAAUAAGGAAUUUUAAUCUAG: 0.458

For quick reference, copied from above (block 4):
TTAGATTTCAGCCTGGATTAGTGCTAG: -0.12 z-score
TATGTTTTTCATTTTGTTCAGTGCTAG: 1.21 z-score
TTAGATATCAGTTTCGAATAGTGCTAG: 3.66 z-score
TTAGGTATCCTTTCCCTTTAGTGCTAG: 0.576 z-score
TTAGGACTGCTTATCCTTCAGTGCTAG: -0.411 z-score
GACGGTTTCGGGTTTCGGCACGTGCTA: 8.49 z-score
TTAGGTTTCTTTTTCCTTTAGTGCTAG: 3.66 z-score
TTAGGTCTCCTGTTCCTTTAGTGCTAG: 0.149 z-score
TCACCACCCACTCTGGCACTGTGCTAG: -0.0721 z-score
TTAGAACTGGGGCTTCGATTAGTGCTA: -0.0746 z-score
AGTATGTTCCCTATTTAAGGGTGCTAG: 0.284 z-score
TTCTTAATGCTTCTGGGCCAGTGCTAG: -0.212 z-score
